Experimental data from different studies.
Protocols differ between the studies behind these lines. ± gives the spread as reported.
Target: Albumin (ALB, Homo sapiens, UniProt P02768)

O=S(=O)(c1ccc(F)cc1)N1CCNCC1COc1ccc2ccccc2c1 (stereo not drawn) gave a fraction unbound of less than 0.02 (HPLC retention on immobilised albumin; human serum albumin column).
For O=C1CC[C@H](N2Cc3c(OCc4ccc(CN5CCOCC5)cc4)cccc3C2=O)C(=O)N1, the fraction unbound was 0.428 (equilibrium dialysis; human serum albumin 50 mg/mL; 6 h, 37 °C).
With O=C(Nc1ccc(F)cc1)N1CCNCC1COc1ccc2c(c1)OCO2 (stereo not drawn) the fraction unbound was roughly 0.1 (HPLC retention on immobilised albumin; human serum albumin column).
The Kd of COc1cc(-c2[o+]c3cc(O)cc(O)c3cc2O[C@@H]2O[C@H](CO)[C@@H](O)[C@H](O)[C@H]2O)ccc1O is reported as 17.4 ± 3.75 µM (binding, visible absorption spectroscopy; pH 7, with: HSA 200 µM).
O=C(COc1ccc(C2CCC(=O)NC2=O)cc1)NCCCCCCN1CCc2c(c3ccccc3n2Cc2ccc(C(=O)NO)cc2)C1 (stereo not drawn) gave a fraction unbound of 0.037 (HPLC on immobilised albumin column).
C=C[C@@H]1C[C@]1(NC(=O)[C@@H]1C[C@@H]2CN1C(=O)[C@H](C(C)(C)C)NC(=O)O[C@@H]1C[C@H]1CCCCCc1nc3ccc(OC)cc3nc1O2)C(=O)NS(=O)(=O)C1CC1 has an unbound fraction of 0.0122 (rapid equilibrium dialysis; 4.5% albumin solution).
For CN(CCCCCCNC(=O)CNc1cccc2c1C(=O)N(C1CCC(=O)NC1=O)C2=O)Cc1cn(Cc2ccc(C(=O)NO)cc2)c2ccccc12 (stereo not drawn), the fraction unbound was 0.03 (HPLC on immobilised albumin column).
CC1(C)NC(=O)N(c2ccc(F)c(Br)c2)C1=O gave an unbound fraction of 0.457.
OC[C@H]1O[C@@H](Oc2cc3c(O)cc(O)cc3[o+]c2-c2ccc(O)cc2)[C@H](O)[C@@H](O)[C@@H]1O gave a Kd of 45.9 ± 1.2 µM (binding, fluorescence quenching; pH 7, 20 °C, HSA 2 µM).
With CC1(C)NC(=O)N(c2ccc(F)c(CC(F)(F)F)c2)C1=O the unbound fraction was 0.646.
COc1cc(-c2[o+]c3cc(O)cc(O)c3cc2O[C@@H]2O[C@H](CO)[C@@H](O)[C@H](O)[C@H]2O)cc(O)c1O gave a Kd of 12.6 ± 1.11 µM (binding, visible absorption spectroscopy; pH 7, with: HSA 200 µM).
With Cc1c(C)c2c(c(C)c1O)CCC(C)(COc1ccc(CC3SC(=O)NC3=O)cc1)O2 (stereo not drawn) the fraction unbound was 0.027 (equilibrium dialysis; human serum albumin 50 mg/mL; 6 h, 37 °C).
The unbound fraction of CC1(C)NC(=O)N(c2ccc(F)c(S(C)(=O)=O)c2)C1=O is reported as 0.941.
O=C1CCC(c2ccc(OCC(=O)OCCCCc3cn(CCCCCCN4CCc5c(c6ccccc6n5Cc5ccc(C(=O)NO)cc5)C4)nn3)cc2)C(=O)N1 (stereo not drawn) has a fraction unbound of 0.033 (HPLC on immobilised albumin column).
CCc1ccc(CCOc2ccc(CC3SC(=O)NC3=O)cc2)nc1 (stereo not drawn) gave a fraction unbound of 0.002 (equilibrium dialysis; human serum albumin 50 mg/mL; 6 h, 37 °C).
CC1(C)NC(=O)N(c2ccc3c(c2)OC(F)(F)O3)C1=O gave an unbound fraction of 0.575.
For Cc1cc(C)c(CNC(=O)c2cc(Cl)c3c(c2C)O[C@@](C)([C@H]2CC[C@H](N(C)C)CC2)O3)c(=O)[nH]1, the unbound fraction was 0.636 (ultracentrifugation; 4% human serum albumin solution; 10000 ng/mL, 160 min).
CC1(C(F)F)NC(=O)N(c2ccc(F)c(C(F)(F)F)c2)C1=O (stereo not drawn) gave a fraction unbound of 0.274 (human plasma).
OC[C@H]1O[C@@H](Oc2cc3c(O)cc(O)cc3[o+]c2-c2ccc(O)c(O)c2)[C@H](O)[C@@H](O)[C@@H]1O has a λmax of 608 nm (visible absorption spectroscopy; acetonitrile–HSA system; 50 µM, pH 7, with: HSA 200 µM).
With CC1(C)NC(=O)N(c2cc(C(F)(F)F)c(F)cc2C#N)C1=O the unbound fraction was 0.758.
O=C(Nc1ccc(F)cc1)N1CCNCC1COc1ccc2ccccc2c1 (stereo not drawn) has a fraction unbound of less than 0.02 (HPLC retention on immobilised albumin; human serum albumin column).
For CN(CCOc1ccc(CC2SC(=O)NC2=O)cc1)c1ccccn1 (stereo not drawn), the fraction unbound was 0.039 (equilibrium dialysis; human serum albumin 50 mg/mL; 6 h, 37 °C).
The unbound fraction of CCS(=O)(=O)N1CCC2(CC1)NC(=O)N(c1ccc(F)c(C(F)(F)F)c1)C2=O is reported as 0.412.
O=C(Nc1ccc2c(c1)B(O)OC2)Nc1ccc(F)c(C(F)(F)F)c1 has an unbound fraction of 0.033 (HSA column HPLC).

Repeated from above:
For O=C1CC[C@H](N2Cc3c(OCc4ccc(CN5CCOCC5)cc4)cccc3C2=O)C(=O)N1, the fraction unbound was 0.428 (equilibrium dialysis; human serum albumin 50 mg/mL; 6 h, 37 °C).
With Cc1c(C)c2c(c(C)c1O)CCC(C)(COc1ccc(CC3SC(=O)NC3=O)cc1)O2 (stereo not drawn) the fraction unbound was 0.027 (equilibrium dialysis; human serum albumin 50 mg/mL; 6 h, 37 °C).
